Measured values pooled from the literature.
Numbered parts are unrelated; each lists some results of a single study. Substitutions count along the parent as printed.

Sample 1
Target: Centromere-binding protein 1, full length, N-terminal tag (CBF1, Saccharomyces cerevisiae, UniProt P17106, residues 1-351)
Chain of UniProt P17106 (whole entry, looked up): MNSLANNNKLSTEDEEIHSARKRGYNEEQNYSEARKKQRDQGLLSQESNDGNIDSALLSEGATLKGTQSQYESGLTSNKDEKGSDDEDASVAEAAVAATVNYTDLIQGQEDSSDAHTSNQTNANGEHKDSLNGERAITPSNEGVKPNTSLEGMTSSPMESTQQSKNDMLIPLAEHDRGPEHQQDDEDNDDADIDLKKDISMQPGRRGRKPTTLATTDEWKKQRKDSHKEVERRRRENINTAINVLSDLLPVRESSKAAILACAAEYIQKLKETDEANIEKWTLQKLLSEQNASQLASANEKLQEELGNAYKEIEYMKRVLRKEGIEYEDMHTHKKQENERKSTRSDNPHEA
Technique: protein-binding microarray
Form: double-stranded DNA, one strand shown
Sample: in vitro
Tested at: 0.8 µM
Notes: whole 60-bp probe, no competitor
Direction: higher = stronger binding
Quantity: fluorescence intensity
Shared flanks, not repeated: … GTCTTGATTCGCTTGACGCTGCTG
Oligonucleotide = GAAGGAAACCGTTGTCACGATGTAATTAAAATTTAG; value = 795 a.u.
Oligonucleotide = GAACTAACAATTGTGATCATCGACTATTTGCAATAG; value = 535 a.u.
Oligonucleotide = CTAATAGTTCTAAAGCACGCATATATATTTATATTC; value = 537 a.u.
Oligonucleotide = CTATCACGCCCGAATCACGTCTATTGCAGATATTTC; value = 623 a.u.
Oligonucleotide = CTAGAAGTAATAACGAAGGTGGTGTAGAGTATATTC; value = 476 a.u.
Oligonucleotide = CTACAAATCGGAATTTGAGTCACAGATCCCAGATTC; value = 533 a.u.
Oligonucleotide = GAACAATTATGTGGTCACGATCACTCGTTGCTTTAG; value = 1350 a.u.
Oligonucleotide = CTACTTGATTAAAGTCACGCTTTCACCAAATATTTC; value = 1620 a.u.
Oligonucleotide = GAATCCAGATCTTTCTGCCTGATGAAAGAAAATTAG; value = 523 a.u.
Oligonucleotide = TGTACGAAGCTATTTCAGGTCACTATAGTAGTTAGG; value = 552 a.u.
Oligonucleotide = GAATTCCTGAAGTTGCACGGGGAACCAAGGCCTTAG; value = 534 a.u.
Oligonucleotide = CTACGTAGGATTGGACACGAGGTTCTTTTTTTATTC; value = 737 a.u.
Oligonucleotide = CTATATTGGATCCCCCACGTCGCCGCGACAGGCTTC; value = 465 a.u.
Oligonucleotide = CTAGCACTTCGTTAACACGTTTGGTTGTCCTTATTC; value = 509 a.u.
Oligonucleotide = GAACATACGGCGGCTCTCCTGATTGCGGTGGGTTAG; value = 543 a.u.
Oligonucleotide = CTAGCGTTATGCTTCCATGTGACCCAACATCTATTC; value = 2780 a.u.
Oligonucleotide = GAATATCGCAAAGCGGGTGAGATCAAATGCTCCTAG; value = 476 a.u.
Oligonucleotide = GAATCCTATTAACGTGGCGTAAAACAATGATATTAG; value = 591 a.u.

Sample 2
Target: OGT, full length, His-tagged (human)
Technique: phage display, sequencing
Sample: in vitro
Tested at: 1 µg OGT
Notes: single substitutions, 15-mer displayed peptide, unchanged parent 19.6
Relative to: input library
Direction: higher = stronger binding
Quantity: fold enrichment
Starting sequence: peptide; TAPFYPPAYQIQVFK
Substitution = TRPFYPPAYQIQVFK [A2R]; value = 16.5 fold
Substitution = TAPIYPPAYQIQVFK [F4I]; value = 18.1 fold
Substitution = TAPFYPPAYQIQVFP [K15P]; value = 8.17 fold
Substitution = TAPFAPPAYQIQVFK [Y5A]; value = 0.924 fold
Substitution = TAPFYPPAYQIKVFK [Q12K]; value = 16.2 fold
Substitution = TAEFYPPAYQIQVFK [P3E]; value = 24.8 fold
Substitution = TAPFYPPAYQIQVFA [K15A]; value = 4.79 fold
Substitution = TAPFYPPAYQIQVFL [K15L]; value = 9.39 fold
Substitution = TAPFYPPAYNIQVFK [Q10N]; value = 0.911 fold
Substitution = TAPFYDPAYQIQVFK [P6D]; value = 0.632 fold
Substitution = TAPFYPPAYQIQVFG [K15G]; value = 9.82 fold
Substitution = TAPFYTPAYQIQVFK [P6T]; value = 1.21 fold
Substitution = TEPFYPPAYQIQVFK [A2E]; value = 25.4 fold

Sample 3
Target: ABI1, truncated, D143A, DHFR fusion (Arabidopsis thaliana)
Technique: DHFR PCA, deep sequencing
Sample: yeast
Notes: methotrexate growth selection, single substitutions
With: (+)-ABA 0.0091 µM
Relative to: wild-type fitted maximum
Direction: higher = stronger binding
Quantity: relative binding score
Starting sequence: PYL1, truncated, DHFR fusion (Arabidopsis thaliana); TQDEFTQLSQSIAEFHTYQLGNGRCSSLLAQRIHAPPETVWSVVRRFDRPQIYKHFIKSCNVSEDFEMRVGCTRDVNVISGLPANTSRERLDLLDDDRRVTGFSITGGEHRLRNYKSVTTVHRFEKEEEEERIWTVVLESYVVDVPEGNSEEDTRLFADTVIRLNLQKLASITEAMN; partner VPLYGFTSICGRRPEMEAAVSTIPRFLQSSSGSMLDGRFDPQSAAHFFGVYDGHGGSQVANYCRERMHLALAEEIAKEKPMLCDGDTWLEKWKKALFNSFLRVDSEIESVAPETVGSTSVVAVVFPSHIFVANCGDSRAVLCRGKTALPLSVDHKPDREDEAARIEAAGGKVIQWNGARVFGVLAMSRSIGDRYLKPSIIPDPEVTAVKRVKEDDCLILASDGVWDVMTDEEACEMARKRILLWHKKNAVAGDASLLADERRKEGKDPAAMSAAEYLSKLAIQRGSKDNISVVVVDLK
Substitution = T86P; value = 5.67%
Substitution = R111V; value = 14.6%
Substitution = S63H; value = 7.27%
Substitution = S42P; value = -1.18%
Substitution = S171H; value = 30.7%
Substitution = F66K; value = -11.8%
Substitution = G108Y; value = -4.72%
Substitution = N114S; value = 2.58%
Substitution = A13E; value = 40%
Substitution = G108S; value = -7.29%
Substitution = L91Q; value = -8.62%
Substitution = R163S; value = 21.2%
Substitution = G102F; value = -7.21%
Substitution = P146Y; value = -0.535%

Sample 4
Target: RNA binding protein fox-1 homolog 2, RRM domain, GST-SBP tag (RBFOX2, Homo sapiens, UniProt O43251-10, residues 100-194)
Technique: RNA Bind-n-Seq
Form: RNA
Sample: in vitro
Tested at: 365 nM
Notes: natural RNA segment, single round, ends assumed
Relative to: no-protein control
Direction: higher = stronger binding
Quantity: RBNS enrichment (R)
Shared flanks, not repeated: GGGAGUUCUACAGUCCGACGAUC … UGGAAUUCUCGGGUGCCAA
Construct (chain): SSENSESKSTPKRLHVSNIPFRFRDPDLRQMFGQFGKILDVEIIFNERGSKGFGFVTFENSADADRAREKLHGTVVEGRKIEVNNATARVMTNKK
Oligonucleotide = CAUCAACUUCUUGGUGAAUUUGACAGGCAAGAAGAUGACAUUCACUUAGUGACAUUAUGUGUGACAGAAUUAAAUGACCGGGAAGAAAACGAAAACCACUUUCCAGUAAU; value = 0.297
Oligonucleotide = CUAGUCUCAGGGGCUCCAACAUCCGCCCUUGACCUUGGCUGGCACUGUAUGCAUGUAGUGCACAAACACGUGACGGAGGAACACAUAAAAGGCUUGUAUGUGUUAUCAUU; value = 14.7
Oligonucleotide = CCCGGCCCACGGCACAGCAAUCCCCUGCGCGUGGAUUUCACCUCACCCUUUGUACCAGAUGUUGAGUGACCAGCUCUGUGGCCCUGUGUCGUCAGAGGCUUGUGAUUAAC; value = 0.379
Oligonucleotide = UCCCUCCAGCAAGCCUCACUGCACCUCUCCCCUGCUGUUUGUGUUUGGAAUUUUGUCUUCUUUAGCUGAGACCAAAUUAAACCUUGGUGCAUAAAGUGAGCUUAAAACUU; value = 0.32
Oligonucleotide = AUGUGAGUGACAGGGAACAAUCCCAGCUCUGGGCUCUGCAGAAACUCACAAACUAAACUCCUUUCUGGUUGUCUGUUUUCAAAAUAGAUACAAUAAACAUUGUUUAUGUC; value = 0.251
Oligonucleotide = GAUUCCAGGGGUGUGAUUGAAUAUUUAUCUCUUGCUCUUGUAUGUUUGUUGGGGAGAAGAAGCACUUUUAAGGAAAAUGCUUCUUAUUUUUCCAAGGCAUUCAGAAGCAG; value = 0.506
Oligonucleotide = AUUCCAAGAGUAGUGGUGUAAAUUGCCUUGGAGCCCUGCAUCCACGUCUUGUAACUAACUUUUGAAUUUUGCCUGACAUGAUUCUCUCUUGAUGAAGAAAUGACAUAUAU; value = 0.735
Oligonucleotide = ACAUAACUUCCCCGGACUGUUCCAAUCUGAUAAUUUGUAAAUGCUUUAGAGUUUUUUUAAUUAACACUUGUGUUGCUAAAUUCUAUUUAUGUAAGUCUGCUAAAGUUUUU; value = 0.764
Oligonucleotide = GCCUUGGAGCUCAAAUCUUUCCUUUGAUUUUUGCUCCUGAUCAUCAAGGCCCCAGUGGCAACCAUGUGGUAAGUGGCCAACCAAGCCCUACCCAGGGUCACCCAACACAC; value = 0.247
Oligonucleotide = AUGGAUGAAUACCUGAGUCACCAGCUGAAGUGUCCCUUAUGAGGAAAGAAGAGGCCAGGGACUAGAAGAUGCACCCCUUUCCUCCUGGGAGCCCCACGCUUCAGGAGUAG; value = 0.44
Oligonucleotide = UUUUUUUUAGCAGCGCCUUUGCUAGAUCAGCUGCCAGUUUGGAUUAUUGCCCUUAAGAGCUUUAAAGAUAGUUUUUUUUACAUGCCUUAUGCAUACAUUCCACUACUGAC; value = 0.487
Oligonucleotide = UUUCUCCAUUUCUGAGGGUCAGGAUGGCCAAGCAUGGAUUAACACUAGGAGAGUGCAGAGCGCAGCAGAGCCUGCUCUCAUCCCUCUAUCCCCAGCCCAGUCUUCCUCCU; value = 0.377

Sample 5
Target: CCND3, cyclin fold, Cln2 fusion (human)
Technique: yeast growth competition, sequencing
Sample: yeast
Notes: weak parent motif
Relative to: not given
Direction: higher = stronger binding
Quantity: normalised enrichment score
Starting sequence: RBL1 docking peptide (human); GSAKRRLFGEDPP; partner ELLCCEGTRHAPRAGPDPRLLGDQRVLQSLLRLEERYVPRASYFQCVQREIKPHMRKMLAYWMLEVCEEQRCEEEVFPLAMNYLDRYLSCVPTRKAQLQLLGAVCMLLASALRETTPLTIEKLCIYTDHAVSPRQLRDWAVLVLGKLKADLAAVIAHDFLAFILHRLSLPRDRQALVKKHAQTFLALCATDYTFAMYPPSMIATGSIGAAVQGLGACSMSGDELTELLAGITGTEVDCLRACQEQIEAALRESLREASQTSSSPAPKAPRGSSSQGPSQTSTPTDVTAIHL
Substitution = P12M; value = 0.0993
Substitution = G9K; value = 0.137
Substitution = G1D; value = 0.107
Substitution = R5C; value = 0.13
Substitution = P12A; value = 0.151
Substitution = G1Y; value = 0.313
Substitution = L7D; value = 0.119
Substitution = A3V; value = 0.114
Substitution = P12E; value = 0.191
Substitution = D11Q; value = 0.0935
Substitution = R5E; value = 0.0971
Substitution = K4D; value = 0.0538
Substitution = A3S; value = 0.163
Substitution = P12D; value = 0.0445
Substitution = A3E; value = 0.159
Substitution = R5T; value = 0.0182
Substitution = L7R; value = 0.109
Substitution = G1C; value = 0.0877
Substitution = L7C; value = 0.152
Substitution = R5P; value = 0.116
Substitution = D11P; value = -0.011
Substitution = P13Q; value = 0.0865
Substitution = F8L; value = 0.189
Substitution = K4Q; value = 0.0891
Substitution = R5F; value = 0.00867

Repeated from above (sample 4):
Oligonucleotide = CCCGGCCCACGGCACAGCAAUCCCCUGCGCGUGGAUUUCACCUCACCCUUUGUACCAGAUGUUGAGUGACCAGCUCUGUGGCCCUGUGUCGUCAGAGGCUUGUGAUUAAC; value = 0.379
Oligonucleotide = UCCCUCCAGCAAGCCUCACUGCACCUCUCCCCUGCUGUUUGUGUUUGGAAUUUUGUCUUCUUUAGCUGAGACCAAAUUAAACCUUGGUGCAUAAAGUGAGCUUAAAACUU; value = 0.32
Oligonucleotide = AUGUGAGUGACAGGGAACAAUCCCAGCUCUGGGCUCUGCAGAAACUCACAAACUAAACUCCUUUCUGGUUGUCUGUUUUCAAAAUAGAUACAAUAAACAUUGUUUAUGUC; value = 0.251
Oligonucleotide = GAUUCCAGGGGUGUGAUUGAAUAUUUAUCUCUUGCUCUUGUAUGUUUGUUGGGGAGAAGAAGCACUUUUAAGGAAAAUGCUUCUUAUUUUUCCAAGGCAUUCAGAAGCAG; value = 0.506
Oligonucleotide = AUUCCAAGAGUAGUGGUGUAAAUUGCCUUGGAGCCCUGCAUCCACGUCUUGUAACUAACUUUUGAAUUUUGCCUGACAUGAUUCUCUCUUGAUGAAGAAAUGACAUAUAU; value = 0.735
Oligonucleotide = ACAUAACUUCCCCGGACUGUUCCAAUCUGAUAAUUUGUAAAUGCUUUAGAGUUUUUUUAAUUAACACUUGUGUUGCUAAAUUCUAUUUAUGUAAGUCUGCUAAAGUUUUU; value = 0.764
Oligonucleotide = GCCUUGGAGCUCAAAUCUUUCCUUUGAUUUUUGCUCCUGAUCAUCAAGGCCCCAGUGGCAACCAUGUGGUAAGUGGCCAACCAAGCCCUACCCAGGGUCACCCAACACAC; value = 0.247
Oligonucleotide = AUGGAUGAAUACCUGAGUCACCAGCUGAAGUGUCCCUUAUGAGGAAAGAAGAGGCCAGGGACUAGAAGAUGCACCCCUUUCCUCCUGGGAGCCCCACGCUUCAGGAGUAG; value = 0.44
Oligonucleotide = UUUUUUUUAGCAGCGCCUUUGCUAGAUCAGCUGCCAGUUUGGAUUAUUGCCCUUAAGAGCUUUAAAGAUAGUUUUUUUUACAUGCCUUAUGCAUACAUUCCACUACUGAC; value = 0.487
